Results pooled from the literature.
Each numbered part is a random draw from the data of one study; scales do not carry over between parts. Positions count from the first letter of the parent shown.

Sample 1 — technique: EMSA with sequencing; form: double-stranded DNA, one strand shown; sample: in vitro; tested at: 10 and 20 nM; baseline: negative control set to 0; direction: higher = stronger binding
Target: Hepatocyte nuclear factor 3-alpha (Foxa1, Mus musculus, UniProt P35582, residues 1-468, full length assumed)
Sequence of UniProt P35582 (whole entry, looked up): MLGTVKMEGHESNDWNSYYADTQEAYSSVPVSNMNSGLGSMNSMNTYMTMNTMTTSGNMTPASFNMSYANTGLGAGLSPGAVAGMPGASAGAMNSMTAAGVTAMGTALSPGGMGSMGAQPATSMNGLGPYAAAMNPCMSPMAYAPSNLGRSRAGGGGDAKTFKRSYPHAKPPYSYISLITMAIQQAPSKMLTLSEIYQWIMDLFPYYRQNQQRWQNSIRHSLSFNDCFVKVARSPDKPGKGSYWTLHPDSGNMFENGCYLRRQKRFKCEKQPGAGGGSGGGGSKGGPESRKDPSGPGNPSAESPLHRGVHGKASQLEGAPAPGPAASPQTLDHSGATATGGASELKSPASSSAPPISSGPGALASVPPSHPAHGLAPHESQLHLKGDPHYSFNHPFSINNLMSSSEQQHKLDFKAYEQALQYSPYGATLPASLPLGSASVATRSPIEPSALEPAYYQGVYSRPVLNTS
Setting: whole designed probe, mean of two concentrations, ends assumed
All sequences stand within: GTGAGCGGTGCCCATTGATGGGGAAC … TTTCACTGGGATCGTGGGGAC
Under “normalised bound fraction”, `ATCTTCCCCCTCTTCCTTGCCCCACCAGCTCACCTTCCCGGGTTATTTGCAGATAGGAAAATAAATAAAGCCGGCATTCGTTAACCCTCTTCTGGCGCAAACTGCTGTTTGCTCTGGATGAATCATGGTCCTTTGGCGACGCCGGGAGCGTAAGCCACGGACAACCGTGTCAGGGCCATGATCCGGGGTGGCC` is recorded as 0.351 ratio.
`ATCTTCCCCCTCTTCCTTGCCCCACCAGCTCACCTTCCCGGGTTATTTGCAGATAGGAAAATAAATAAAGCCGGCATTCGTTAACCCTCTTCTGGCGCAAACTGCTGTTTGCTCTGGATGAATCATGGTCCTTTGGCGACGCCAGGCTCCGGGAGAGCAAAGCTTTTTTTTTGGGCCATGATCCGGGGTGGCC` — result for “normalised bound fraction”: 0.33 ratio.
For `GGCGGAAGTGGAAAGAAATTGAGGGATCTGAATTTGTTGTTTACTAGGAGGTGTGGGTCCAACTTCCAACCTTGTCCCCAGACCTTTTCCAGGAGATTGCTTAGGAAGCACTGCCATCTTGTGGCTTACTATAGTTATTGCAGACAGAAGGAAAATCTACCAAAGCCCCCATGACAATACCAATGAGCAATGA`, “normalised bound fraction” read -0.00589 ratio.
Under “normalised bound fraction”, `CTGAGGTCAGGAGGCCGGCATGCGTGACCCTTTGTCTCTGGGAGTCCAGATTTCCTAATGCAGGGCTCTTTCTAACACAGAAAGCAAGGTTGAGTAAATACATGAGCTCATGCTCTGTTGGCACGTAGGGCATTGCTGTGTTGATTCACTCATGGAAACAGGAATGCTTCTGTACACCCTGTGCTTGTAACGT` is recorded as 0.26 ratio.
For `ATCTTCCCCCTCTTCCTTGCCCCACCAGCTCACCTTCCCGGGTTATTTGCAGATAGGAAATTAATATAAGCCGGCATTCGTTAACCCTCTTCTGGCGCAAACTGCACATTGGTCTGGATGAATCATGGTCCTTTGGCGACGCCAGGCTCCGGGAGAGCAAAGCACCGTGTCAGGGCCATGATCCGGGGTGGCC`, “normalised bound fraction” read 0.0728 ratio.

Sample 2 — Change: I79V; technique: DHFR PCA, deep sequencing; sample: yeast; baseline: wild-type fitted maximum; direction: higher = stronger binding
Target: ABI1, truncated, D143A, DHFR fusion (Arabidopsis thaliana)
Setting: methotrexate growth selection, single substitutions
Parent: PYL1, truncated, DHFR fusion (Arabidopsis thaliana); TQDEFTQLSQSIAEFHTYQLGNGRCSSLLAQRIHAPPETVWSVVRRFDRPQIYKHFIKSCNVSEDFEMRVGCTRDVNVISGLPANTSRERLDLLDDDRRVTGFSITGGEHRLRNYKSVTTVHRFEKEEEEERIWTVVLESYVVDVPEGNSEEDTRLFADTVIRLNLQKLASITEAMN; partner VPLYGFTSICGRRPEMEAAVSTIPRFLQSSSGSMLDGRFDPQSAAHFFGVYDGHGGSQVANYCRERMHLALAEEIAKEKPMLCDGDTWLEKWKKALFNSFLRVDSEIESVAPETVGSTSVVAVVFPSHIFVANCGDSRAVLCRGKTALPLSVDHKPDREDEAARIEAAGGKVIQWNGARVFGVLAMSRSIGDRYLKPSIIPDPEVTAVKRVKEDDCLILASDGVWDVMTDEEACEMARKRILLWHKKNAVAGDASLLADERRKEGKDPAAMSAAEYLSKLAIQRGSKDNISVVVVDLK
added: (+)-ABA 0.0091 µM — “relative binding score”: 47.2%.
added: (+)-ABA 0.39 µM — “relative binding score”: 62.5%.
For added: (+)-ABA 2500 µM: “relative binding score” read 95.3%.
For added: (+)-ABA 17 µM: “relative binding score” read 91.6%.
added: (+)-ABA 0.032 µM — “relative binding score”: 44.2%.
It gave 42.3% for “relative binding score” (added: (+)-ABA 0 µM).

Sample 3 — target: CCNF, cyclin fold, Cln2 fusion (human); technique: yeast growth competition, sequencing; sample: yeast; setting: strong parent motif; baseline: not given; direction: higher = stronger binding; parent: viral docking peptide; TSVRRALFTGGSD
`L7Y` — result for “normalised enrichment score”: 0.923.
`R4Y`: “normalised enrichment score” 5.91.
For `F8Y`, “normalised enrichment score” read 5.71.
Under “normalised enrichment score”, `S12I` is recorded as 8.3.
Under “normalised enrichment score”, `R5W` is recorded as 0.734.
For `A6D`, “normalised enrichment score” read 3.5.
For `R5T`, “normalised enrichment score” read 0.373.
`T9L`: “normalised enrichment score” 8.77.
For `F8Q`, “normalised enrichment score” read 0.759.
`T9G` — result for “normalised enrichment score”: 8.84.
`V3Q` — result for “normalised enrichment score”: 2.2.
Under “normalised enrichment score”, `R5Y` is recorded as 0.409.
For `S12E`, “normalised enrichment score” read 7.81.
`S2A`: “normalised enrichment score” 7.9.
`L7F` — result for “normalised enrichment score”: 0.5.
`T9E`: “normalised enrichment score” 7.75.
`G11M` — result for “normalised enrichment score”: 8.53.

Sample 4 — technique: RNA Bind-n-Seq; form: RNA; sample: in vitro; tested at: not given; baseline: input RNA pool; direction: higher = stronger binding
Target: RING finger protein unkempt homolog, zinc fingers 1-6, GST-SBP tag (UNK, Homo sapiens, UniProt Q9C0B0, residues 30-357)
Sequence of UniProt Q9C0B0 (30-357, looked up): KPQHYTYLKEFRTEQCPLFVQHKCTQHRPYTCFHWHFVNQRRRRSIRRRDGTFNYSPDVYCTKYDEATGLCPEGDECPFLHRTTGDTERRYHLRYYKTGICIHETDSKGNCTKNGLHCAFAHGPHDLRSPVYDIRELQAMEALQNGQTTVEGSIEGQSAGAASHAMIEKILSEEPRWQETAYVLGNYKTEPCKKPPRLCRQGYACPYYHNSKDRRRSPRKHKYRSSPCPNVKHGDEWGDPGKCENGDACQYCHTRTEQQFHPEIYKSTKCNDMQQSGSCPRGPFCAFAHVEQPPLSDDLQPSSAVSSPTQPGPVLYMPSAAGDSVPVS
Setting: RNA with constant flanks, human-mouse chimeric sites, ends assumed
All sequences stand within: GGGAGUUCUACAGUCCGACGAUC … CAACAGAGGAUUGAGCAUCA
The bound/input enrichment of `CAGCCUCAGAGCCCUGACUUCCUGGAUAUUACCAACCCUAAAGCGGUAUUAGAAAAUGCACUUAGGAACUUCGCCUGUCUGACGACUGGAGAUGUGAUUGCUAUCAACUACAAUGAGAAG` is reported as 0.601 ratio.
`GAUAAGAAAAGCUUGUUGGAGACCCGCUUGCAUGUCACUGGUAGAGAACUGAGGUCCCAAAUAGCUGAAACUUUCGGAUUUCAAGAAAAUUACAUCAAGAUCGUAAUAAAUAAGAAGCAG` has a bound/input enrichment of 0.647 ratio.
`UCGGAUGAGGUGCUGGGUCACUUUUCAUAUCCAGAUCCUUCACAGUGGACAGAUGAAGAACUGGGAAUCCCUCCUGAUGACGAGGACUGACACUGUAAACUCUCUGGACGAGUAGGAGCA` has a bound/input enrichment of 0.827 ratio.
With `UCUGAGGUACCACUGAAGAGACCUUAAAAGAAUCAUUUGAGGGCUCUGUUCGUGCAAGAAUAGUCACUGAUCGGGAAACUGGUUCUUCCAAAGGGUUUGGUUUUGUAAGACUUCAACGUG` the bound/input enrichment was 0.24 ratio.
`GUUCGGCUCUGGGAUCAUGCCACAAUGACAGAAGUGAAAUCUCUAAAUUUUAAUAUGUCUGUUAGCAGCAUGGAGUAUAUUCCUGAAGGAGAGAUUUUGGUUAUAACUUAUGGACGAUCU` gave a bound/input enrichment of 0.466 ratio.
The bound/input enrichment of `GAGUCGAGCAAACUUGAAACAAUUCGUUAUCUUGCAGAGCUUCGGUGCACUUGCUUGGCGAUAGCAUUGGGGUUUUAUAUAGAUUCUAAGGAGAACUGACGAUGAUGCUGCCGCUGCUGC` is reported as 0.206 ratio.
For `CUAGCAGUCCAGCAGCUAGAAGGAGCCUUGAGACAAAGCCUGGAAAUACAGGGAAGGCGAUAACAUUGUACAUUGGUUUACAUUUUUUCCCCCUGUGGAUUUUUCUAGAGGUCAUAGUGC`, the bound/input enrichment was 0.488 ratio.
For `CAGUCCCGCGACAGCGUUGCAGGACGAUGUGAACAAAAACUCAAAGCGGACCCUCUAUUGUAGUUCUUGAUUCUCGAAAUGUGCUAUUAUUGUUUGUCUUUUUUUUUUUUUUUUUAAAGA`, the bound/input enrichment was 0.958 ratio.

For quick reference, copied from above (sample 1):
`ATCTTCCCCCTCTTCCTTGCCCCACCAGCTCACCTTCCCGGGTTATTTGCAGATAGGAAAATAAATAAAGCCGGCATTCGTTAACCCTCTTCTGGCGCAAACTGCTGTTTGCTCTGGATGAATCATGGTCCTTTGGCGACGCCAGGCTCCGGGAGAGCAAAGCTTTTTTTTTGGGCCATGATCCGGGGTGGCC` — result for “normalised bound fraction”: 0.33 ratio.
Under “normalised bound fraction”, `ATCTTCCCCCTCTTCCTTGCCCCACCAGCTCACCTTCCCGGGTTATTTGCAGATAGGAAAATAAATAAAGCCGGCATTCGTTAACCCTCTTCTGGCGCAAACTGCTGTTTGCTCTGGATGAATCATGGTCCTTTGGCGACGCCGGGAGCGTAAGCCACGGACAACCGTGTCAGGGCCATGATCCGGGGTGGCC` is recorded as 0.351 ratio.
Under “normalised bound fraction”, `CTGAGGTCAGGAGGCCGGCATGCGTGACCCTTTGTCTCTGGGAGTCCAGATTTCCTAATGCAGGGCTCTTTCTAACACAGAAAGCAAGGTTGAGTAAATACATGAGCTCATGCTCTGTTGGCACGTAGGGCATTGCTGTGTTGATTCACTCATGGAAACAGGAATGCTTCTGTACACCCTGTGCTTGTAACGT` is recorded as 0.26 ratio.
